Assay results pooled from the literature.
Protocols differ between the studies behind these lines.
SLC6A4: Sodium-dependent serotonin transporter (SLC6A4, Homo sapiens, UniProt P31645)
Sequence of UniProt P31645 (whole entry, unmodified, looked up): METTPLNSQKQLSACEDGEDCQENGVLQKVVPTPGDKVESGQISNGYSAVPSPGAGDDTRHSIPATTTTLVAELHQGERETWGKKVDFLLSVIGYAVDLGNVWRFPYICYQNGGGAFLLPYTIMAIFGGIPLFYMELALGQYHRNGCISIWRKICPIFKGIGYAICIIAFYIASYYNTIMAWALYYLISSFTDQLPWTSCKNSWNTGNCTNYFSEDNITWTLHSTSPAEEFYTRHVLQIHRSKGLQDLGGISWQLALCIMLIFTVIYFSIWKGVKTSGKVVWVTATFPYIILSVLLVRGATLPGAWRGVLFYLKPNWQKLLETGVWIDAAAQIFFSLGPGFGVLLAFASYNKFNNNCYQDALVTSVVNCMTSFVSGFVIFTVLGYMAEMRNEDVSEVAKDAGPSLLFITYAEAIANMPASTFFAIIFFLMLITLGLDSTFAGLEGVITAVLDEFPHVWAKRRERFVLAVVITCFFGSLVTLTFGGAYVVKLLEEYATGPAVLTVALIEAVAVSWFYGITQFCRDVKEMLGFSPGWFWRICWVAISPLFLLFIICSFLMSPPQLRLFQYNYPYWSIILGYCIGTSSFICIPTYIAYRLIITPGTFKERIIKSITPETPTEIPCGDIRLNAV

| SMILES | target | assay | setting | Ki [µM] |
| --- | --- | --- | --- | --- |
| CCCC(NCC)C(=O)c1ccc2c(c1)OCO2 (stereo not drawn) | SLC6A4 | ligand displacement, radioligand | cell membranes | 0.893 |
| CCCC(C(=O)c1ccc2ccccc2c1)N1CCCC1 (stereo not drawn) | SLC6A4 | ligand displacement, radioligand | cell membranes | 0.0149 |
| c1ccc([C@@H]2CCNC[C@H]2COc2ccc3c(c2)OCO3)cc1 | SLC6A4 | transporter uptake, inhibitor, radiometric |  | 0.00097 |
| CNC(C)C(=O)c1ccccc1 (stereo not drawn) | SLC6A4 | ligand displacement, radioligand | cell membranes | > 100 |
| CCCC(NC)C(=O)c1ccc(C)cc1 (stereo not drawn) | SLC6A4 | ligand displacement, radioligand | cell membranes | 6.2 |
| C=C[C@H]1C[N@@]2CC[C@H]1C[C@@H]2[C@@H](O)c1ccnc2ccccc12 | SLC6A4 (Homo sapiens, UniProt P31645, S438T) | transporter uptake, inhibitor, radiometric |  | 5.4 |
| CCN(CC)C(=O)[C@@H]1C=C2c3cccc4[nH]cc(c34)C[C@H]2N(C)C1 | SLC6A4 | ligand displacement, radioligand |  | > 10 |
| CNC(C)C(=O)c1ccc(F)cc1 (stereo not drawn) | SLC6A4 | ligand displacement, radioligand | cell membranes | > 100 |
| CC(C(=O)c1ccc2c(c1)OCO2)N(C)C (stereo not drawn) | SLC6A4 | ligand displacement, radioligand | cell membranes | > 10 |

A few entries again:
| SMILES | target | assay | setting | Ki [µM] |
| --- | --- | --- | --- | --- |
| CCN(CC)C(=O)[C@@H]1C=C2c3cccc4[nH]cc(c34)C[C@H]2N(C)C1 | SLC6A4 | ligand displacement, radioligand |  | > 10 |
